Measured values collected from several papers.
Each line is one published result; not all experiments were run side by side. “And” joins repeats or separate records; there may be more than shown. ± gives the spread as reported.

NC1=NC(=S)NC12CCCCC2 gave an inhibition of 89.9% (human erythrocytes; hypotonicity-induced hemolysis; 200 µg/mL, 1 h).
COc1ccc(/C=C2/S/C(=N/N=C(\C)c3ccccn3)NC2=O)cc1OC gave an inhibition of 60.2% (HepG2; cell growth or viability, SRB; 100 µg/mL, 48 h).
COC(=O)C[C@H](NC(=O)[C@H](C)NC(=O)[C@@H](NC(=O)OCc1ccccc1)C(C)C)C(=O)CF has an inhibition of 65% (glioblastoma cells; caspase-3/7 activation, CellEvent fluorescence; 100 µM, with: MED2).
For COc1ccc(/C=C/C(=O)N2CCc3ccccc3C2)cc1OC, the inhibition was 41.2% (BV-2; NO release, inhibitor, Griess; 5 µM, LPS-stimulated).
The inhibition of O=C(Cc1ccc(Br)cc1)Nc1nc2ccccc2n1Cc1ccc(Br)cc1 is reported as greater than 50% (MDA-MB-231-HRE-Luc; HIF reporter gene, inhibitor, HRE luciferase reporter; 10 µM, hypoxia; reference: untreated).
CCN1C(=O)C(C(C)=O)S/C1=N/N=C(\C)c1ccccn1 (centres unmarked) has an inhibition of 59.3% (HepG2; cell growth or viability, SRB; 100 µg/mL, 48 h).
The inhibition of COc1ccc2c(c1)c(CC(=O)O)c(C)n2C(=O)c1ccc(Cl)cc1 is reported as 98.9% (human erythrocytes; hypotonicity-induced hemolysis; 1000 µg/mL, 1 h).
O=C(Cc1ccc(C(F)(F)F)cc1)Nc1nc2ccccc2n1Cc1ccc(Br)cc1 gave an inhibition of greater than 50% (MDA-MB-231-HRE-Luc; HIF reporter gene, inhibitor, HRE luciferase reporter; 10 µM, hypoxia; reference: untreated).
CC(C)(C)OC(=O)OCc1ccc(C=O)o1 has an inhibition of 71.6 ± 0.1% (human sickle red blood cells; sickling; 2 mM, 2 h, 37 °C, hematocrit 20%, 4% oxygen).
O=C1CCC(=O)C2(CCCCC2)N1 gave an inhibition of 78.2% (human erythrocytes; hypotonicity-induced hemolysis; 800 µg/mL, 1 h).
The inhibition of CCCCC[C@@H](O)[C@H]1C(=O)O[C@H](C)[C@@H](O)/C=C/C=C/C=C/C=C/C=C(\C)[C@@H](O)C[C@H](O)C[C@H](O)C[C@H](O)C[C@H](O)C[C@H](O)C[C@@H]1O is reported as 88.4% (MCEC mouse; transfection reporter gene; 1.0 µg/mL, 1 h; reference: vehicle).
O=C1NC2(CCCCC2)c2nc3c(c(-c4ccccc4)c21)CCCC3 gave an inhibition of 86.4% (human erythrocytes; hypotonicity-induced hemolysis; 600 µg/mL, 1 h).
With CC(C)OCc1ccc(C=O)o1 the inhibition was 22.5 ± 8.8% (human sickle red blood cells; sickling; 2 mM, 2 h, 37 °C, hematocrit 20%, 4% oxygen).
Cc1cc(-c2ccccc2)c2c(n1)C1(CCCCC1)NC2=O gave an inhibition of 69.2% (human erythrocytes; hypotonicity-induced hemolysis; 100 µg/mL, 1 h).
CCN1C(=O)/C(=C\c2ccc(OC)c(OC)c2)S/C1=N/N=C(\C)c1ccccn1 has an inhibition of 69.8% (HepG2; cell growth or viability, SRB; 100 µg/mL, 48 h).
CCOCc1ccc(C=O)o1 has an inhibition of 58.8% and > 54% (human sickle red blood cells; sickling; 2 mM, 2 h, 37 °C, hematocrit 20%, 4% oxygen).
O=C1NC2(CCCCC2)c2[nH]c(=S)nc(-c3ccccc3)c21 has an inhibition of 78.8% (human erythrocytes; hypotonicity-induced hemolysis; 400 µg/mL, 1 h).
COc1cc(/C=C/C(=O)N2CCC(Cc3ccccc3)CC2)ccc1OC1CCCCC1 has an inhibition of 38.1% (BV-2; NO release, inhibitor, Griess; 5 µM, LPS-stimulated).
The inhibition of C[C@@H](Oc1cc(-c2cnn(C3CCNCC3)c2)cnc1N)c1c(Cl)ccc(F)c1Cl is reported as 96.9% (KARPAS-299; cell growth or viability, MTT; 20 µg/mL).
For O=C(Cc1ccc(Cl)cc1)Nc1nc2ccccc2n1Cc1ccc(Cl)cc1, the inhibition was greater than 50% (MDA-MB-231-HRE-Luc; HIF reporter gene, inhibitor, HRE luciferase reporter; 10 µM, hypoxia; reference: untreated).
